Experimental data from different studies.
Every numbered part comes from another study and shows a few of its results, in no order. Changes are numbered by the printed parent chain.

Set 1
Target: Phosphate system positive regulatory protein PHO4, full length, GST-tagged (PHO4, Saccharomyces cerevisiae, UniProt P07270, residues 1-312)
Technique: competition protein-binding microarray
Form: double-stranded DNA, one strand shown
Matrix: in vitro
Tested at: 2 µM
Notes: whole 60-bp probe, lowest competitor level
Added: Cbf1 competitor, 0.05 µM
Direction: higher = stronger binding
Endpoint: fluorescence intensity
Residues (chain): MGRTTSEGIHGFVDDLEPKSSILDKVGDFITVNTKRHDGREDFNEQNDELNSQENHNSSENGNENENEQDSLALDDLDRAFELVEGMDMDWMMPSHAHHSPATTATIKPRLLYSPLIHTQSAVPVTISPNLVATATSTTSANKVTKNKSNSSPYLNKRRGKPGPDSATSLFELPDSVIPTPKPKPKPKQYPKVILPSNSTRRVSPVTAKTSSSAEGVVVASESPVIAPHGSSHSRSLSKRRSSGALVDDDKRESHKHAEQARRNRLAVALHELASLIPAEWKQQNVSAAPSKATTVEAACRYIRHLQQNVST
TCTGTGCTGTTCAATAACGTGGAATCCATTTTTGCTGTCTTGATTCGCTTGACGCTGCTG: 7400 a.u.
AAGTGGATTTGCCAGCCCGTGTCTGTTTAGAGATGTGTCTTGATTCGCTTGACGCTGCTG: 9800 a.u.
TGCGCAACAACTTTTCACGTGCACTTATGTCTAGAAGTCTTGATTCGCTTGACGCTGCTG: 13400 a.u.
TTTCAGGCAAGCTGGCAGGTGACGCTCCGCACCTTCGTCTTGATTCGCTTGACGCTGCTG: 3280 a.u.
TCTGTATGGGTTTGTCATGCTGCTCTGGCCCTTTGTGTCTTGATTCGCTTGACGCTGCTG: 4580 a.u.
GTCTTGTCTCATTGTCACCCTACTTTCCCCACTTCAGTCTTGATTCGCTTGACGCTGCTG: 5100 a.u.
CGGGGTTAAGTTTGGTTAGTGGGTGGCTTGCAGCAGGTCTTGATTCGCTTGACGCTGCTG: 4430 a.u.
TGGCCAAGGTTGTCTTCCGTGACTCGTACAAGTACAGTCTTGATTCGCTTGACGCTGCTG: 3190 a.u.
TATGACCGTCCGACCACCGTGACTCGTAACAAAGTCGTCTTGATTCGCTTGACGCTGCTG: 4300 a.u.
CGGCTCCCGCTCGGCCTCGTGACTCCCGCGGAGACCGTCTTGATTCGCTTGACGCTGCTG: 7650 a.u.
CGGGGTTAAGTTTGTCACAGGACTTGCTTGCAGCAGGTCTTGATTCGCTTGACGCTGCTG: 3370 a.u.
CGGGGTTAAGTTTTTCACGTGGGATGCTTGCAGCAGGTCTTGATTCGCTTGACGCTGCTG: 13300 a.u.
CTCTTATCGGTATTACTTTCTTATCAATGAAAAATTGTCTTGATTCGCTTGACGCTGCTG: 4540 a.u.
CGTCCTAGTGATTGGACTGTGGGTGCCATGAGGAAGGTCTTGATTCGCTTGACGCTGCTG: 6380 a.u.
TGGTCCTAAACTCACCACGTGAAATAGGTTGATAATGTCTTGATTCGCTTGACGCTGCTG: 13900 a.u.
CTTTCCCGATCTTGACGGGTGGGTGTAGCACATTTGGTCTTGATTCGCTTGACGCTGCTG: 4810 a.u.
GAATTTTTTCGAATTAGCGTGCTTTCACTGCTTGCAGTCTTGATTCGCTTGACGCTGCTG: 5520 a.u.

Set 2
Target: Ras GTPase-activating protein-binding protein 1, full length (G3BP1, Homo sapiens, UniProt Q13283)
UniProt Q13283, sequence (whole entry, looked up): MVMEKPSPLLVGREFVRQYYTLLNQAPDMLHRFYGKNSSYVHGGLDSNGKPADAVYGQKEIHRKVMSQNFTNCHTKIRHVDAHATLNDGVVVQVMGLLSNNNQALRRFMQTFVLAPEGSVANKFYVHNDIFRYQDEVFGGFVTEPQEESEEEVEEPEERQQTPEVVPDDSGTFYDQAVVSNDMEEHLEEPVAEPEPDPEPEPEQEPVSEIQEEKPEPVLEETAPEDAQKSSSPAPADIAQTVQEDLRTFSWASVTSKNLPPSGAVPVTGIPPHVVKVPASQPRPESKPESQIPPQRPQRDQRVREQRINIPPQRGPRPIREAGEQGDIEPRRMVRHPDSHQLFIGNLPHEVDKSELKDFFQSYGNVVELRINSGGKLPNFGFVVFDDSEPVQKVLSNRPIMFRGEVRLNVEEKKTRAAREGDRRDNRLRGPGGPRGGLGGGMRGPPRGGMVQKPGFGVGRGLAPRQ
Technique: RNA Bind-n-Seq
Form: RNA
Matrix: in vitro
Tested at: 200 nM
Notes: whole 134-nt RNA, ends assumed
Added: 150 mM KCl
Reference: input library
Direction: higher = stronger binding
Endpoint: log2 enrichment
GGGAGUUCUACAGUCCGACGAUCACCAUGCAGGUGGGCAUCUUUGGGAAGUGGGGCAGGGGGGGGAUAGGGAGGGGGGUAACACUUUGGGAACAGGUGGUCCCAGGUCGUUUCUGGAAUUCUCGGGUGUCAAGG: 1.22
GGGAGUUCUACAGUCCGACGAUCAGUCCUGUGCUACACAUCGUAUGUACCGAAUCGGGGAAAAGGGAAAAGGGAAAAGGGAAAGUAUUAUGUUACGCCGUUCGGAUCUGCACUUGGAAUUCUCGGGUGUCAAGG: 0.182
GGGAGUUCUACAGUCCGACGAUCCCUCAAGUCCUGUGCUACACAUCGUAUGUACCGAAUCGGCCGGCCGGCCGGGAAAGUAUUAUGUUACGCCGUUCGGAUCUGCACUUCCAGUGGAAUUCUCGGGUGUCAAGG: 0.451
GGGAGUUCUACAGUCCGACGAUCUGGGAGGUGGAUUUUGUUUAUUUUUUUAGCUCAUUUCCAGGGGUGGGAAUUUCUUUUUAAUAUGUGUCAUGAAUAAAGUUGUUUUUGAAAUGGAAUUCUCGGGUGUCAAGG: 0.0729
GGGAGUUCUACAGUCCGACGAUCACCAUACAGGUGGGCAUCUUUGGGAAGUGGGGCAAGGGGGGGAUAGGGAGGGGGGUAACACUUUGGGAACAGGUGGUCCCAGGUCGUUUCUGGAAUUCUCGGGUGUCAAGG: 1.12
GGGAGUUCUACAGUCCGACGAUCAGUCCUGUGCUACACAUCGUAUGUACCGAAUCGGGUUUUUGGGUUUUUGGUUUUUGGAAAGUAUUAUGUUACGCCGUUCGGAUCUGCACUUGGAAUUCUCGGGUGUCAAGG: -1.16
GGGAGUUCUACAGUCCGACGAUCUCAAGUCCUGUGCUACACAUCGUAUGUACCGAAUCGGGAAAGGGUGGGUUUGGGAAAGUAUUAUGUUACGCCGUUCGGAUCUGCACUUCCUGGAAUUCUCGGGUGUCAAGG: 1.04
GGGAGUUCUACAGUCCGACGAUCCAAGUCCUGUGCUACACAUCGUAUGUACCGAAUCAAAUUUAAACCCAAAUUUAAAAAAGUAUUAUGUUACGCCGUUCGGAUCUGCACUUCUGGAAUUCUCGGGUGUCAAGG: -0.404
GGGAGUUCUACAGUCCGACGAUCAAUGCCCACAAGGUCCCUCCCCCAUGGCUGAUUGCCAUGCAGCGAUAUGGACCACCCCCAUCGUAUCCCAACCUGAAAAUCCCUGGGCUGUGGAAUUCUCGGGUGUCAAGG: 0.782
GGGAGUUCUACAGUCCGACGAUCUGGGAGGUGGAUUUUGUUUAUUUAUUUAGCUCAUUUCCAGGGGUGGGAAUUUUUUUUUAAUAUGUGUCAUGAAUAAAGUUGUUUUUGAAAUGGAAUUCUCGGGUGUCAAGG: 0.0695
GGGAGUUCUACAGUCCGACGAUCCCUCAAGUCCUGUGCUACACAUCGUAUGUACCGAAUCGGGCGGGCGGGCGGGGAAAGUAUUAUGUUACGCCGUUCGGAUCUGCACUUCCAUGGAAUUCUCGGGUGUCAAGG: 1.13
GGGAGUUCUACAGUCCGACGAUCUGUGCUACACAUCGUAUGUACCGAAUCGGGGUUUUUUUGGGGUUUUUUUGGGGUUUUUUUGGGAAAGUAUUAUGUUACGCCGUUCGGAUCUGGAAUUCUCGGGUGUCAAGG: -0.568
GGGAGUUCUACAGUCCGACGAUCCCUCAAGUCCUGUGCUACACAUCGUAUGUACCGAAUCGGAGGAGGAAAAAGGAAAGUAUUAUGUUACGCCGUUCGGAUCUGCACUUCCAGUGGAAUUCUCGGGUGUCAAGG: 0.00554
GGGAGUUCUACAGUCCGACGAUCCAAGUCCUGUGCUACACAUCGUAUGUACCGAAUCGGUUUUUUUGGAAAAAGGAGGAAAGUAUUAUGUUACGCCGUUCGGAUCUGCACUUCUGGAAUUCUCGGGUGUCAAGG: -0.871

Set 3
Target: CCNA2, cyclin fold, Cln2 fusion (human)
Technique: yeast growth competition, sequencing
Matrix: yeast
Notes: strong parent motif
Reference: not given
Direction: higher = stronger binding
Endpoint: normalised enrichment score
Parent: GMNC docking peptide (human); KNAKRNLSSEFAN; partner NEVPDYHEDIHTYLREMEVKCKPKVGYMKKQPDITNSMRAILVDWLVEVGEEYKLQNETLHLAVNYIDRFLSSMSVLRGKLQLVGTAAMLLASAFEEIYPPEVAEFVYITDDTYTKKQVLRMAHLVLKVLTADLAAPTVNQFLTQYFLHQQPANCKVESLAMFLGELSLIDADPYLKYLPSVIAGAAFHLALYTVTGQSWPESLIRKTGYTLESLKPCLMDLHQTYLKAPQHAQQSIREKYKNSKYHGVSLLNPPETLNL
N6I: 0.652
S8W: 4.32
N6E: 2.16
A3L: 2.44
S9K: 5.77
S8N: 5.15
N2K: 5.98
S8F: 5.5
N6C: 4.83
S8V: 4.97
S8C: 4.78
N2V: 4.3
E10Q: 3.93
S8G: 3.93
S9D: 4.8
N6G: 1.63
R5Y: 0.0862
E10W: 2.36
A12R: 4.73
R5W: 0.362
F11H: 0.205
N2D: 3.73
E10A: 3.41
S9A: 5.71
N2I: 4.08

Set 4
Target: RNA binding protein fox-1 homolog 2, RRM domain, GST-SBP tag (RBFOX2, Homo sapiens, UniProt O43251-10, residues 100-194)
Technique: RNA Bind-n-Seq
Form: RNA
Matrix: in vitro
Tested at: 365 nM
Notes: natural RNA segment, single round, ends assumed
Reference: no-protein control
Direction: higher = stronger binding
Endpoint: RBNS enrichment (R)
Construct (chain): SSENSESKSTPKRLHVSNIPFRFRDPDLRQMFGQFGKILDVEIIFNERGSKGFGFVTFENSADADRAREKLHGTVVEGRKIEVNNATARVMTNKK
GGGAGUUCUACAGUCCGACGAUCAAGACUCUGUUCUGGGUGUGGGCCAGGAGGUCUUAGAAAGAAGCUGGCUGUCAGUGACCAUGUGGGCAUUGAGGCUGGUCCCAGAGAUGCUCGAAAGUCAGUGAAAGCUAUGGAAUUCUCGGGUGCCAA: 0.439
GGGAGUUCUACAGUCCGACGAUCUUAUGACUGGUAAGAGGGAGUGCUCCUGGACCCUGCUCGUGUGCCUUUUUCUACUGUUCAUUUUAUUCUGUGGCCUUUCAGUGUAAUAAACUGAAAUCAUGACUUUCACAUGGAAUUCUCGGGUGCCAA: 0.518
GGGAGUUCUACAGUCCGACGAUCCCCAGGUCCAGGCCCUGUGUAAGGGCUUGCAGCCUGUCUCUGCUGUCCACCCUGCAGUGCUCACUUUAAACACAGGUCUCUAGGAGACCCUGGGAAACACACCAAUCACCUGGAAUUCUCGGGUGCCAA: 0.205
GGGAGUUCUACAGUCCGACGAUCCUAUAGAGCGUCAUUUAUACGUAGUUUGGCAGAAACCACUUACGGCUGAUGAUGCGCAACCCUGCUGACUGUUUCAGUUAAUAUGCUGCACACCACACACUUGUUUAGUGUGGAAUUCUCGGGUGCCAA: 0.307
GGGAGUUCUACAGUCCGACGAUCUAGAAGAUGGACUCUGAAAGACAUUCCAAGAGUGCCGCGGCAGCAUGGGAGCCUCUUAGUGAUUGUGUCAGUAUUAUUGUGGAAGAUUGCCUUUGCUGUUGUAUGUAAAGUGGAAUUCUCGGGUGCCAA: 8.35
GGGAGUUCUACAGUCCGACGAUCAAGAAAAUGAGGAGAACACUUUGUAUUUACCCCAAAAUCUUUUCAGUUGUGGGUUUGUAGGUGCGAGUUUGAAGAGGAAAAGAGGAAGGGGGUUAUAUUUCUAAGUGAUUUGGAAUUCUCGGGUGCCAA: 2.36
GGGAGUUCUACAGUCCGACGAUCCAGAACUGAAGAUGGAAUGGCCUGACCAGCUAUUAAGAACGUGGGGAGACGCAGAAAUUGUGGUAAAAUUCCUUAAUGUUUAAGGGAAAGUAACUUUAAGAGAUUUUUGGUGGAAUUCUCGGGUGCCAA: 0.533
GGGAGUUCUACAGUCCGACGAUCAGAGUUUUACCAAGAUGAAAAGGGUUGAAACACCUGUGAGUGCCUUACAUGGGAAGAACUGCUCUAACCCACUGUGCUAAUGUUCAGAAGCAGAGCCCUCAGUGAGAGCUUGGAAUUCUCGGGUGCCAA: 0.327
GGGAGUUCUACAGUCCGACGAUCACAUGGAGUGGAGAUUGGAUCAUUUAACAAUAUAACAAAACUUCCUGAUUUGAUUUUACGUAUCUUCUAUCUACGCCCUUCCUGUGCCUGUGACUCUCCCCAAAUUGCCCUGGAAUUCUCGGGUGCCAA: 0.359
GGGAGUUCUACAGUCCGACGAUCCUGCUGUGUGAGAGAGGAGCCAAGAGGCAGGUGCUUGCCGACGGCCGCAUCCUCCUUCCCAGGUGUUGGACCAAGACCCGCCCCGCUGCCUGGCACUGCUUGGAGGUGUGUGGAAUUCUCGGGUGCCAA: 0.909
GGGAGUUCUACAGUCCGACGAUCUUCUGGAAGUUGAUAGUGAACAGUUCUCCGUGUAACAGUGACUCUCCAUGAAAUUCCGUUUCCUCUGUUAACCGUCACUGAGCACUCUUCCUCGGGGCUCUCUGCUGCUCUGGAAUUCUCGGGUGCCAA: 0.227
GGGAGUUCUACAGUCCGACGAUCCCCUUCAUUUUGGGACUGAGGCUGCAGCAUUGGAACAAAAGAGCAUUAUUUCAAUUUUUCUUUCUUUUUUUUUGUUCGUUCAUUUAAACGUAUAUUUAGAACUGCACUUUUGGAAUUCUCGGGUGCCAA: 1.13
